Results of several laboratories.
Every numbered part comes from another study and shows a few of its results, in no order.
Chain of UniProt P06239 (whole entry, looked up): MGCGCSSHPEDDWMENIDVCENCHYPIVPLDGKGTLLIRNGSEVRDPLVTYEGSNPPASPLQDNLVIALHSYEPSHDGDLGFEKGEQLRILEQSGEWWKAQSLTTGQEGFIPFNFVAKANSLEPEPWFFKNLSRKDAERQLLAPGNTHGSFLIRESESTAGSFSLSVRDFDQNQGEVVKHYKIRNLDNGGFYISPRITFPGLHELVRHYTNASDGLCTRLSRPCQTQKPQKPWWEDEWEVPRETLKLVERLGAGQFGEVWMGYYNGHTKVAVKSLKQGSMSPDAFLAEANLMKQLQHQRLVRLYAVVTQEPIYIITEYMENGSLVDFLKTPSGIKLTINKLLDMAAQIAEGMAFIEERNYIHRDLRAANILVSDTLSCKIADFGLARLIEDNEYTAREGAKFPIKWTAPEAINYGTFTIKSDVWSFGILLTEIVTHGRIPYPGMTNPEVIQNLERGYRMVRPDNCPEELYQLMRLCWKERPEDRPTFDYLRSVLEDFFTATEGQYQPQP
Chain of UniProt Q96PY6 (whole entry, looked up): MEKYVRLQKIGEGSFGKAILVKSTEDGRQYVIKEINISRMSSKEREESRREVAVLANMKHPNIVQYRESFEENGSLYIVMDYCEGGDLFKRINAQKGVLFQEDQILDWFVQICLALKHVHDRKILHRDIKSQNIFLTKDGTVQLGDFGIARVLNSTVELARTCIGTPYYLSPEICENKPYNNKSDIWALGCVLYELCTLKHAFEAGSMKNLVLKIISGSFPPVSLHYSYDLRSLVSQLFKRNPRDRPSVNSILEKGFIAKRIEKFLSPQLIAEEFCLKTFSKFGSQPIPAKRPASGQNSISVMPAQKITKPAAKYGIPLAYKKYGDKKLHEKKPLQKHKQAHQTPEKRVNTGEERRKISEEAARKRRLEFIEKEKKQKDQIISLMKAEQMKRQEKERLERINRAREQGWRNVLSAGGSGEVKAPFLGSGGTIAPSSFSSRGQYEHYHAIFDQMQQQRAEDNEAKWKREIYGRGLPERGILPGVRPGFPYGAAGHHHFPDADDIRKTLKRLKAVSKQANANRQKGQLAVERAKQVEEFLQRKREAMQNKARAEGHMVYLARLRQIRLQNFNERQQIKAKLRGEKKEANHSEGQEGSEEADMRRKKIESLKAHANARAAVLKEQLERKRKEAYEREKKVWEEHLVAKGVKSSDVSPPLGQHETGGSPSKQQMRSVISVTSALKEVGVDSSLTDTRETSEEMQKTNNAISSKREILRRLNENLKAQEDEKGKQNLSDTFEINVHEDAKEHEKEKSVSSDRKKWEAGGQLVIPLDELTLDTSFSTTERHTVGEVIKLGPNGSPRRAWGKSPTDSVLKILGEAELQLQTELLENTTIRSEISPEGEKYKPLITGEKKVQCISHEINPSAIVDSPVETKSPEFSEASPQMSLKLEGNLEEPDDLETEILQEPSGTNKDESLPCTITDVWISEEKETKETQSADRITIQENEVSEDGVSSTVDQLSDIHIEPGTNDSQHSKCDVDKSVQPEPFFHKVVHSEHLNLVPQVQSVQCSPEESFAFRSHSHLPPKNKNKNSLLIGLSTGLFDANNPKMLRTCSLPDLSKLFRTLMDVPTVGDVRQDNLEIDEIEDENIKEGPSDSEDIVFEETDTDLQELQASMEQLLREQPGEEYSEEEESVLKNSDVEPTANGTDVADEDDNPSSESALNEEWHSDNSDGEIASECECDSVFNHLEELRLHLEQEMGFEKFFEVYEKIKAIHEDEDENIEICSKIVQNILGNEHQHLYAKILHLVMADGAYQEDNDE
Chain of UniProt Q8IYT8 (whole entry, looked up): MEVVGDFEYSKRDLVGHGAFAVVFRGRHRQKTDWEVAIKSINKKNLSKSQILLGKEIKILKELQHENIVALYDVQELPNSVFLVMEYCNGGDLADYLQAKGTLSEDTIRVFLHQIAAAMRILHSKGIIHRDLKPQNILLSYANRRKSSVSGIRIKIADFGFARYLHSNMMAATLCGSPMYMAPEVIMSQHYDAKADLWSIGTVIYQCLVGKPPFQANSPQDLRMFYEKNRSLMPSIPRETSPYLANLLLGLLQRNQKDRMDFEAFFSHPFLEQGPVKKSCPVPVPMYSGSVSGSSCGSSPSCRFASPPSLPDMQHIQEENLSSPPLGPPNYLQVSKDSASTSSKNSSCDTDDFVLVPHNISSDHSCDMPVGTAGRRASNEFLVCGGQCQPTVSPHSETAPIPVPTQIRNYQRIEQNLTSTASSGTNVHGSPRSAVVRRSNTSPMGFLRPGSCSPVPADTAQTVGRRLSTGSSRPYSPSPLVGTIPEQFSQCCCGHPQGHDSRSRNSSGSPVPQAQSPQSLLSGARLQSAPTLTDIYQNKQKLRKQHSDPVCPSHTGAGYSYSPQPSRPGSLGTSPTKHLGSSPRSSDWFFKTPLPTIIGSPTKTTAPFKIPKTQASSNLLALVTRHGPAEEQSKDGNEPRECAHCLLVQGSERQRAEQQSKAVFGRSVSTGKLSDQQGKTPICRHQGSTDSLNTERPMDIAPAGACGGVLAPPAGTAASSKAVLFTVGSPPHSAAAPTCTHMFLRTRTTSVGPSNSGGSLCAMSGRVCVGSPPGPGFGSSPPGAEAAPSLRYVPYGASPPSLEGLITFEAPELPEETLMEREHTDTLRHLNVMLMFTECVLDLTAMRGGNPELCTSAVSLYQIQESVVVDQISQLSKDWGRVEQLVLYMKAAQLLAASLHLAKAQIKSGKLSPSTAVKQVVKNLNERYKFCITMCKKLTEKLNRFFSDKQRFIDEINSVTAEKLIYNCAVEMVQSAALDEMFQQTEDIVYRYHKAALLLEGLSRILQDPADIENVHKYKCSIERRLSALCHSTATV
Chain of UniProt Q96BR1 (whole entry, looked up): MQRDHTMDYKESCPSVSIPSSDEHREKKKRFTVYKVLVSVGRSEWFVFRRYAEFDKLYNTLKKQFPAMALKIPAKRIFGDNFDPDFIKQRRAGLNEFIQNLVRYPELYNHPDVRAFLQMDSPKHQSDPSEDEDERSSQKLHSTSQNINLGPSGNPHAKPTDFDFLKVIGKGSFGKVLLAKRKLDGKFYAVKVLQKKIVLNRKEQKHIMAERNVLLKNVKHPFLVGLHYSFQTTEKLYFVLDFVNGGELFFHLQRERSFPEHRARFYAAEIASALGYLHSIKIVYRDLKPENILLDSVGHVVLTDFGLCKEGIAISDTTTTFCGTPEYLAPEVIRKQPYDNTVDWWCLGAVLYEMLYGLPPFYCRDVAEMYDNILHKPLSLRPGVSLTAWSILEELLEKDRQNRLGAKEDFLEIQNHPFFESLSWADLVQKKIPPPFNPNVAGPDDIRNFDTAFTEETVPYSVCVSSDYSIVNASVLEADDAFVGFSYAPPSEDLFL
Chain of UniProt P27361 (whole entry, looked up): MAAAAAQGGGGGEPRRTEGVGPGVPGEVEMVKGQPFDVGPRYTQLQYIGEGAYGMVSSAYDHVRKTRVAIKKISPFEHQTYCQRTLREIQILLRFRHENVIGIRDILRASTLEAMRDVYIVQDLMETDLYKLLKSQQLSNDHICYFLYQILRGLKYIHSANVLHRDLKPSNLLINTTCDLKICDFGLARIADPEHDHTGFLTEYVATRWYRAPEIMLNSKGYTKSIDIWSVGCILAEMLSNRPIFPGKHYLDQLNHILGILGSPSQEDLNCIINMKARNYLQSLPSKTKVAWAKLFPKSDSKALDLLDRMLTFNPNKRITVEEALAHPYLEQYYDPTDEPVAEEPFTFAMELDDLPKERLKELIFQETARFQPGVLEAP
Chain of UniProt P49137 (whole entry, looked up): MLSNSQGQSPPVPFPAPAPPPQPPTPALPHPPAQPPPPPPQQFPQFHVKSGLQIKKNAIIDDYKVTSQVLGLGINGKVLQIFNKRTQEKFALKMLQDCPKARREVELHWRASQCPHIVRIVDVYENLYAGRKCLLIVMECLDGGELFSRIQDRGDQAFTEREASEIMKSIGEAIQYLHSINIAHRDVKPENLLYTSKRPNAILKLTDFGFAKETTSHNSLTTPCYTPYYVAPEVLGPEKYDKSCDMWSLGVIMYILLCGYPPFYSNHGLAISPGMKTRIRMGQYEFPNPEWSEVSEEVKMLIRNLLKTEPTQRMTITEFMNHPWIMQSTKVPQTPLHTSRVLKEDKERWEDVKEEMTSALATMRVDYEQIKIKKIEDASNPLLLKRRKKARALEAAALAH

Sample 1
SMILES: O=C(Nc1ccc(Cl)cc1)c1ccccc1NCc1ccncc1
Read-out: enzyme activity
Mode: inhibitor
Concentration: 0.5 µM
Reference: control
target	remaining activity [%]
Serine/threonine-protein kinase Nek1 (NEK1, Homo sapiens, UniProt Q96PY6)	96
Angiopoietin-1 receptor (TEK, Homo sapiens, UniProt Q02763)	92.4
Serine/threonine-protein kinase ULK2 (ULK2, Homo sapiens, UniProt Q8IYT8)	104
Mitogen-activated protein kinase kinase kinase 14 (MAP3K14, Homo sapiens, UniProt Q99558)	114
Serine/threonine-protein kinase TAO2 (TAOK2, Homo sapiens, UniProt Q9UL54)	102
Rhodopsin kinase GRK7 (GRK7, Homo sapiens, UniProt Q8WTQ7)	96.2
Ribosomal protein S6 kinase alpha-2 (RPS6KA2, Homo sapiens, UniProt Q15349)	94.1
Serine/threonine-protein kinase TBK1 (TBK1, Homo sapiens, UniProt Q9UHD2)	88.4
Serine/threonine-protein kinase ULK3 (ULK3, Homo sapiens, UniProt Q6PHR2)	84.7
Tyrosine-protein kinase Lck (LCK, Homo sapiens, UniProt P06239)	93.3
Mitogen-activated protein kinase 3 (MAPK3, Homo sapiens, UniProt P27361)	102
MAP kinase-activated protein kinase 2 (MAPKAPK2, Homo sapiens, UniProt P49137)	97.6
Casein kinase I isoform gamma-3 (CSNK1G3, Homo sapiens, UniProt Q9Y6M4)	105

Sample 2
SMILES: CN(C)c1ncnc(-c2ccc3nc(Nc4cc(CN5CCN(C(=O)CC(F)(F)F)CC5)ccn4)[nH]c3c2)c1Cl
Read-out: cell-free assay
Method: competition with immobilised ligand
Concentration: 1 µM
target	remaining binding
SNF-related serine/threonine-protein kinase (SNRK, Homo sapiens, UniProt Q9NRH2)	100%
Serine/threonine-protein kinase Sgk3 (SGK3, Homo sapiens, UniProt Q96BR1)	72%
Casein kinase I isoform alpha (CSNK1A1, Homo sapiens, UniProt P48729)	89%
Epidermal growth factor receptor (EGFR, Homo sapiens, UniProt P00533, L861Q)	96%
Cytoplasmic tyrosine-protein kinase BMX (BMX, Homo sapiens, UniProt P51813)	100%
Serine/threonine-protein kinase TAO1 (TAOK1, Homo sapiens, UniProt Q7L7X3)	77%
Protein kinase C delta type (PRKCD, Homo sapiens, UniProt Q05655)	100%
Serine/threonine-protein kinase PLK2 (PLK2, Homo sapiens, UniProt Q9NYY3)	100%
Tyrosine-protein kinase ABL1, phosphorylated (ABL1, Homo sapiens, UniProt P00519, M351T)	43%
Fibroblast growth factor receptor 2 (FGFR2, Homo sapiens, UniProt P21802)	100%
Epidermal growth factor receptor (EGFR, Homo sapiens, UniProt P00533, G719S)	79%
Tyrosine-protein kinase ABL1, non-phosphorylated (ABL1, Homo sapiens, UniProt P00519)	26%
Tyrosine-protein kinase ABL1, non-phosphorylated (ABL1, Homo sapiens, UniProt P00519, H396P)	4.2%
Dual specificity tyrosine-phosphorylation-regulated kinase 1A (DYRK1A, Homo sapiens, UniProt Q13627)	77%
Citron Rho-interacting kinase (CIT, Homo sapiens, UniProt O14578)	100%
Receptor tyrosine-protein kinase erbB-3 (ERBB3, Homo sapiens, UniProt P21860)	63%
Mast/stem cell growth factor receptor Kit (KIT, Homo sapiens, UniProt P10721)	100%

Sample 3
Target: Hepatocyte nuclear factor 3-alpha (Foxa1, Mus musculus, UniProt P35582, residues 1-468, full length assumed)
Chain of UniProt P35582 (whole entry, looked up): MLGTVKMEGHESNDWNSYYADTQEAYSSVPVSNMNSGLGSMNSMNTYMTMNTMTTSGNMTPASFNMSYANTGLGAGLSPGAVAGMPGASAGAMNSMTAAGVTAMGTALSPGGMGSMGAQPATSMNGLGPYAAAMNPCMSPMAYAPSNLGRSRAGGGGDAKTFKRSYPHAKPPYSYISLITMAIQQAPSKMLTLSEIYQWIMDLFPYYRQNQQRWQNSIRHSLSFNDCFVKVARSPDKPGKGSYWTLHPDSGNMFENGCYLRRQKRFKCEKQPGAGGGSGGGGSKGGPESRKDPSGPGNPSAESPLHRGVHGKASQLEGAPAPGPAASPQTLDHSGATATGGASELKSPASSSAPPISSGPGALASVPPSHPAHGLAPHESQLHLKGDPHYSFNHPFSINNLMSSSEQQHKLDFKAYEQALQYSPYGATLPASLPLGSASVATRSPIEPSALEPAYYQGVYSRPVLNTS
Method: EMSA with sequencing
Molecule type: double-stranded DNA, one strand shown
Sample: in vitro
Concentration: 10 and 20 nM
Setting: whole designed probe, mean of two concentrations, ends assumed
Reference: negative control set to 0
Reading: higher = stronger binding
All sequences stand within: GTGAGCGGTGCCCATTGATGGGGAAC … TTTCACTGGGATCGTGGGGAC
Sequence	normalised bound fraction
AACAAACAAATAAAACAACTAGTATGGAAGCTAGAATAATGTGATGCACCATTACACCAAATATTCAGTCTTAACATGGTTTTTAATATTATGTAATCTTGGAAGGTATTGCCATTGTTCATATGATACAGAATCAATGGTACTCACAATCATCTGAATATGTTGAAAAATGGCATCTTCAAATAAAAATTAT	0.273 ratio
AATATTTCAAACACTACGTACCCCAACTGACATTTGAGTAGCAGTTAAGTTCTTGGAACGCTGCCATTTTGATCTGTTACGTAACAGCTCATTGTAATCTGGATGAAATAGGGCAGTTAAAAGACTAATGGTCAGTGAAATCTACAACAGGAATGGAAAGAATTTTCCCCTTAAAAATTTGGAAATCCTTATT	-0.0194 ratio
AGTTGGGATTAAAAAAACAAAATCCAAAATCTGGGTTTCAGTGTCATCTGTAAAATGTAGATATAATGACTGTGGTGAGTATCTGTGTGTGCAAGAGTACATATGTGTATGAGTTTATGTAGGAGTACACATATACTTAGAAGCACAAATGAGTCATGCTCTATACAACATTGTGCAGCTCCTTTTTTACAGA	0.0626 ratio
AAACAAGTTTTAAAATTACAAATGAATGCTCAAGAGGAGAACAAAGTTCTAGAGCCAGTTTTAAGGGTCAAATGGTAAACAAAAGGTCAAAAGGTAAACAAGCCCATATCTATGGTTTCAGCTAAGAGCTCAGAGGGGAGCTAGCTAGTTACTCATTATCGCAATGAATTAGCATAACACTAAGGAGAATTAC	0.469 ratio
TTTTTTCCACTTTGCATGCTTGCTTGTGCCTTTTCTCCTGATACTCCTATCTAACTAGAGATTTATTTTCACATTATTTTAGATTACTCTCCCATGTTTACTCTGAAAATCTGTGGCACTCATATTTCATAGTGTAAAATTGTAGCAATCTGAGACTACTACAGTTGTTAGCCTCTTCTCCTTATAACCAGTA	0.135 ratio
ACTTTTTCTGTCTGTCTCTGCAGATCCTTACAGTGCTCACTTACCTATTCTTTGACTTCAATCTCTTGTTGCTCTCTTTACTCCACATTCCAAAGTAAACAAGCCTTTTTTTTTTTTAATTTCCTTAGAGGCGTATAGTGGAAGAAAGGGAACAAATCTTGCTTAAATTCACCATCTACTAGCTACCATTTCA	0.396 ratio
CTGAGGCGCTGCAGGCCCGGCTTCTGGCTGCGGGGGAGCTGTACCCTGAAGCCTCGCCGGAACTCGCGTCTGGGGCCAGCAGGGGGCACTAGAGTCATCTGGGACTGTATGCAAAACCCACTTCCTCCCAGGCCCTCTAGGGGGATGGTCAGGCTTCTGCAGAGATGGGGAGGATCCTTTCCTGGTAAGGGGA	-0.0692 ratio
CAAGTTTGTGGTCCAGGAGCAACAGGTTATGCCATACAGCCTAGGTGTGTAGTAGGCTACACACCGTCTATGTTTGTGTTGTACACTCTACAAAGATTGCACAATGATGAAATCCCATGACTCATTTCTCAGAACATACCCCTGTTGTTAAGCGATACATGACTGTACTTTTTTTAAAAAGTCCAAGGATATA	0.153 ratio

Sample 4
Target: ATP-dependent RNA helicase DDX3X, helicase core (DDX3X, Homo sapiens, UniProt O00571, residues 132-607)
Chain of UniProt O00571 (132-607, looked up): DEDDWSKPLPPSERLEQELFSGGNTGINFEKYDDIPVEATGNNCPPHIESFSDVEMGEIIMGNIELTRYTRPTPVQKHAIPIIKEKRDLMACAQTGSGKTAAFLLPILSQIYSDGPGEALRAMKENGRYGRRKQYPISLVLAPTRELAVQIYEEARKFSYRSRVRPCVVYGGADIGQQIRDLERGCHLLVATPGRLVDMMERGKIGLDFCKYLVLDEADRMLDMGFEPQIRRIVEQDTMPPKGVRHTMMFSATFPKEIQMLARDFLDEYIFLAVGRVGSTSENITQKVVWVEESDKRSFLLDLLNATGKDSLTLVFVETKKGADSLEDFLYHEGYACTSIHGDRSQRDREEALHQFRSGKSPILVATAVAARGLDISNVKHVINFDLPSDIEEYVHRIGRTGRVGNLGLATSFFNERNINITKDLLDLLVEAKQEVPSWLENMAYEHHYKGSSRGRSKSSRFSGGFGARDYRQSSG
Method: RNA Bind-n-Seq
Molecule type: RNA
Sample: in vitro
Concentration: 90 pmol
Setting: 4-mer, random 30-nt RNA, single round
With: 3 µM DMDA-PatA, 2 mM ADP, 2 mM phosphate
Reference: input library
Reading: higher = stronger binding
Sequence	4-mer enrichment
UCCU	0.872 fold
ACGU	0.926 fold
UUAA	1.09 fold
UAGC	0.857 fold
CAUU	0.925 fold
UGGA	1 fold
UUUG	1.02 fold
UCGC	0.924 fold

Some of these lines once more (sample 2):
target	remaining binding
SNF-related serine/threonine-protein kinase (SNRK, Homo sapiens, UniProt Q9NRH2)	100%
Serine/threonine-protein kinase Sgk3 (SGK3, Homo sapiens, UniProt Q96BR1)	72%
Casein kinase I isoform alpha (CSNK1A1, Homo sapiens, UniProt P48729)	89%
Epidermal growth factor receptor (EGFR, Homo sapiens, UniProt P00533, L861Q)	96%
Cytoplasmic tyrosine-protein kinase BMX (BMX, Homo sapiens, UniProt P51813)	100%
Serine/threonine-protein kinase TAO1 (TAOK1, Homo sapiens, UniProt Q7L7X3)	77%
Protein kinase C delta type (PRKCD, Homo sapiens, UniProt Q05655)	100%
